{"data": "Published values of several laboratories", "note": "Parts stem from different laboratories: compare values within a part only."}
{"data": "Series 1", "target": "Interferon regulatory factor 3, full length, phosphomimetic (IRF3, Homo sapiens, UniProt Q14653, residues 1-427, S386D/S396D/S398D/S402D/T404D/S405D)", "method": "protein-binding microarray", "form": "double-stranded DNA, one strand shown", "medium": "in vitro", "tested at": "2540 nM top", "notes": "60-bp whole probe", "added": "salmon DNA 0.4 mg/ml", "relative to": "random background probes", "direction": "higher = stronger binding", "shared flanks, not repeated": "GCCTAGCAC … GTCTTGATTCGCTTGACGCTGCTG", "Target sequence (chain)": "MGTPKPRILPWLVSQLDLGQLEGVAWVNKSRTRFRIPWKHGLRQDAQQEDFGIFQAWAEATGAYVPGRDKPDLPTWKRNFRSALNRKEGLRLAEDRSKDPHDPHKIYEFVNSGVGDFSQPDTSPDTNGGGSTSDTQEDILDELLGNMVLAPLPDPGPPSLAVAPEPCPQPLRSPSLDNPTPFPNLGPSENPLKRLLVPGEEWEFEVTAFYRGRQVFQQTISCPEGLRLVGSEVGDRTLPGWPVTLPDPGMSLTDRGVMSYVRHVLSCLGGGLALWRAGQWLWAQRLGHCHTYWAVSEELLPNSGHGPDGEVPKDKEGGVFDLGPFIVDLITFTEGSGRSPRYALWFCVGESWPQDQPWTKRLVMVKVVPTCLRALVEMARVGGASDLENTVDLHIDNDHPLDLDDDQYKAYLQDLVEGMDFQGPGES"}
{"Strand": "TCCATCATTGCTTTCTCTTTGTGCTAG", "fitted relative affinity [z-score]": 0.857}
{"Strand": "GACGATCTCAGTTTCGAGAGGTGCTAG", "fitted relative affinity [z-score]": 1.87}
{"Strand": "TCATTTCTCAAATGTTTTACTGTGCTA", "fitted relative affinity [z-score]": 2.35}
{"Strand": "ATCCATTTTGGTTTTCATTAGTGCTAG", "fitted relative affinity [z-score]": 3.1}
{"Strand": "TCATTGATGGCTCTCTGACTGTGCTAG", "fitted relative affinity [z-score]": -0.869}
{"Strand": "TGTCATTTTCTCTTATTCTAGTGCTAG", "fitted relative affinity [z-score]": 2.55}
{"Strand": "TCCACTTGTCTTTTCACTTTGTGCTAG", "fitted relative affinity [z-score]": 1.54}
{"Strand": "GACGGACTGGACCTTCGGGACGTGCTA", "fitted relative affinity [z-score]": -0.604}
{"Strand": "TCAACTTTCTTAATGCTACTGTGCTAG", "fitted relative affinity [z-score]": 1.56}
{"Strand": "CTAGTTGTGATTCTTTCGATGTGCTAG", "fitted relative affinity [z-score]": 1.7}
{"Strand": "TTAGAACTGGGGTTTCGATTTGTGCTA", "fitted relative affinity [z-score]": 2.47}
{"Strand": "GTCGGTATCGGGACTGGGGACGTGCTA", "fitted relative affinity [z-score]": 2.91}
{"Strand": "GACGGACTGGGTTCCGGGACGTGCTAG", "fitted relative affinity [z-score]": -0.341}
{"Strand": "GACGGAATCCTACTGCTGACGTGCTAG", "fitted relative affinity [z-score]": 0.583}
{"Strand": "GACGGTATCGGACTGGGGAGGTGCTAG", "fitted relative affinity [z-score]": 1.41}
{"Strand": "TTAGATCTCAGACTGCATTAGTGCTAG", "fitted relative affinity [z-score]": -0.128}
{"Strand": "GACAATTTCAGTATCGAGACGTGCTAG", "fitted relative affinity [z-score]": 2.09}
{"Strand": "TTTACTTTCTATCTCTGTTTGTGCTAG", "fitted relative affinity [z-score]": 5.49}
{"Strand": "CTAGGTATCCTTCTCCTTTAGTGCTAG", "fitted relative affinity [z-score]": 6.9}
{"Strand": "TTAGGACTGGGTATCGATTAGTGCTAG", "fitted relative affinity [z-score]": -0.0446}
{"Strand": "CTAGGTTCCGGTTTCGGTTAGTGCTAG", "fitted relative affinity [z-score]": 7.24}
{"Strand": "GAAGTTCTAAATATCTTTGTGTGCTAG", "fitted relative affinity [z-score]": -0.282}
{"Strand": "CTAGGTTTCGGTATCGGTTAGTGCTAG", "fitted relative affinity [z-score]": 8.56}
{"Strand": "AGTGCTATACCACTCTTGCTGTGCTAG", "fitted relative affinity [z-score]": 0.125}
{"Strand": "TTAGGTATCCTTATCCTTTCGTGCTAG", "fitted relative affinity [z-score]": 5.54}
{"data": "Series 2", "target": "Sal-like protein 4, full length isoform A (SALL4, Homo sapiens, UniProt Q9UJQ4, residues 1-1053)", "method": "universal PBM", "form": "double-stranded DNA, one strand shown", "medium": "in vitro", "tested at": "600 nM", "notes": "8-mer, flanks averaged, mean of replicates", "direction": "higher = stronger binding", "UniProt Q9UJQ4, sequence (whole entry, looked up)": "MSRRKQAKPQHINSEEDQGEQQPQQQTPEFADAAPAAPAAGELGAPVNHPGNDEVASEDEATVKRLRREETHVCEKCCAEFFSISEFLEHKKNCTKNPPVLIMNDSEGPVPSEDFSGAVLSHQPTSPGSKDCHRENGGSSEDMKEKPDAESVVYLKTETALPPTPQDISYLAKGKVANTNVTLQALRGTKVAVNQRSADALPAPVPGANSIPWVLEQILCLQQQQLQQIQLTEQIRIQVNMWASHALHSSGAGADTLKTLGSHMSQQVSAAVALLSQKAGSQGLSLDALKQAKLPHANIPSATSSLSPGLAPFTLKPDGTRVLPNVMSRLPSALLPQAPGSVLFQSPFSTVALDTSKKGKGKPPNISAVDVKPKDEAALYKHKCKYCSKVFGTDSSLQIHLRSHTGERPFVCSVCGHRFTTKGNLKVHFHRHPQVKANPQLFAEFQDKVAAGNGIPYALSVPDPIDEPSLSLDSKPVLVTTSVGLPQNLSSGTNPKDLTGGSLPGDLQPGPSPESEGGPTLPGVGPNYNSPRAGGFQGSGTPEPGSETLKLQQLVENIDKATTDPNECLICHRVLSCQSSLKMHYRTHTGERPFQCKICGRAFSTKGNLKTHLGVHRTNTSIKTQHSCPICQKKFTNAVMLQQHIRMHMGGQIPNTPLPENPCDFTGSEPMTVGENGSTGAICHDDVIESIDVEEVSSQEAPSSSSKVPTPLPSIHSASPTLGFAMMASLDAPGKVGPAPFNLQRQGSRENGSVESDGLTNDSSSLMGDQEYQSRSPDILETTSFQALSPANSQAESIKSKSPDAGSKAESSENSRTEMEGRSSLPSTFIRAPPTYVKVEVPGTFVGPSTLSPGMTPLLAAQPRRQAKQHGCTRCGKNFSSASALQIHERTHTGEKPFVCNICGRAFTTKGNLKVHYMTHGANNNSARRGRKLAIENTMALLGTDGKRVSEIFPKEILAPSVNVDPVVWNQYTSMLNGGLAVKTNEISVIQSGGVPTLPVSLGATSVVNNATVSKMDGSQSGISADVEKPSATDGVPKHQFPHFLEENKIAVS"}
{"Strand": "GTAGGAAA", "E-score": 0.083}
{"Strand": "ATAGCTAT", "E-score": 0.328}
{"Strand": "ATCGTTAA", "E-score": 0.205}
{"Strand": "AATTGGCG", "E-score": 0.141}
{"Strand": "CAAACCTA", "E-score": 0.0317}
{"Strand": "GGTTCTTA", "E-score": 0.057}
{"Strand": "CGCATGTC", "E-score": -0.00191}
{"Strand": "ATTCGTCA", "E-score": 0.0313}
{"Strand": "ACGAGGTG", "E-score": -0.0312}
{"Strand": "GCTGATAC", "E-score": 0.00887}
{"Strand": "AGCTCAAT", "E-score": 0.0528}
{"Strand": "GAACTGTC", "E-score": -0.122}
{"Strand": "ACAGATAA", "E-score": 0.222}
{"Strand": "AGTCGCGG", "E-score": -0.3}
{"Strand": "AGGTCCTC", "E-score": -0.164}
{"Strand": "GGATTTCA", "E-score": 0.122}
{"Strand": "CCAGTACC", "E-score": -0.262}
{"Strand": "ACTTGCAC", "E-score": -0.0373}
{"Strand": "GTCCACAA", "E-score": 0.058}
{"Strand": "GGGCCGAA", "E-score": -0.312}
{"Strand": "CCCGTCAC", "E-score": -0.311}
{"data": "Series 3", "target": "RNA binding protein fox-1 homolog 2, RRM domain, GST-SBP tag (RBFOX2, Homo sapiens, UniProt O43251-10, residues 100-194)", "method": "RNA Bind-n-Seq", "form": "RNA", "medium": "in vitro", "tested at": "365 nM", "notes": "natural RNA segment, single round, ends assumed", "relative to": "no-protein control", "direction": "higher = stronger binding", "shared flanks, not repeated": "GGGAGUUCUACAGUCCGACGAUC … UGGAAUUCUCGGGUGCCAA", "Residues (chain)": "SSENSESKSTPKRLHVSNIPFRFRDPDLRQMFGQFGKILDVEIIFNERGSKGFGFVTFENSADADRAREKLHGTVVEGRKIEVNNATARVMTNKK"}
{"Strand": "ACUGUCCAGCAUUUUUCUGUCGUUUCCCCCCCACCCCAAAUCCUUUUUUUCUCUUCUUUUUUAAAAGAUAGGUAGGGUCUUGCUAGAUAUCUCUAGCAAGCCUGUUUCUU", "RBNS enrichment (R)": 0.922}
{"Strand": "GGGAUAUUGCCUUAUUUGUCUGUAAAAAAUGGAGCUCAGUAACAUAACUGCUUCUUGGAGCUUUGGAAUAUUUUAUCCUGUAUUCUUGUUUGAAUUCCUCCUCUAUUUAA", "RBNS enrichment (R)": 0.558}
{"Strand": "GAUAAUGUUUUUAAAUUUCAUUAUCAAACUUGGGCAAUUCUGUUUGUGUAACUCCCCGACUAGUGGAUGGGAGAGUCCCAUUGCUAAAAUUCAGCUACUCAGAUAAAUUC", "RBNS enrichment (R)": 1.03}
{"Strand": "CUCUGCACACAAUAGGUGCUUCUUGGAUGUUCUUGGGUUUGGAAAUAAGUGGAAAAUACGGGAUGUACCCCUGGGGGAAAAGCCUGGGUUGGGUUUAGAAAGAUCUCAGG", "RBNS enrichment (R)": 1.11}
{"Strand": "AGGUGCUAUAGGAAACAUAGAUCCAGCCAGGGGCUUCCCUAAAGCAGUGCAGCACCGGCCCAGGGCAUCACUAGACAGGCCCUAAUUAAGUUUUUUUUAAAAAGCCUGUG", "RBNS enrichment (R)": 0.395}
{"Strand": "UGGCUCAAAUCCUGUAAAGGGCUUGACCAGUCUCUACAUAGUCACCGUCCGCUUUUCCUGAGUUCUCCCUCCCAAUUGGCUCCAGCUUCCUGGGGGCGUGGCCAAGCCCU", "RBNS enrichment (R)": 0.311}
{"Strand": "GCUUGCAUGGGUCUGCCCGUGUCGACAGACCCUAGGCUCCCAGUCUCUCUCCUUCAUGUGCUAUUCUCCUUCCCCAGGCAGAUUGGCAGGGGAAGUGGGAGCAGAUGGCC", "RBNS enrichment (R)": 1.64}
{"Strand": "CCAAUGUCAUUGUCCAAACAGAAGAGACUCAGGAGUCUGAGUAAAAUUGUGUUCCCUUGCCCUGAGCAGUCCUUAGACUCAGGGCUUGAAGGUCUGUGGUGUCUCUGUCC", "RBNS enrichment (R)": 0.377}
{"Strand": "UCACUGCAGUGUUACCGGAGCUUCCUUCAUUGUGCGCACACGACAAAUCUGAGUUCUUUGGGAAAAAAAUAGAAAUGAAGCAGCCUCCCUUCAUAAUGUGAGCAAUAGUU", "RBNS enrichment (R)": 0.901}
{"Strand": "AUUUAUGUAUUUUGUAUUCAAUGUGAGGCUUAUUAAAAAUAGUGAUUCUAAUGUAAGAAUCAGCUAAGAUGCAUUAUAUAUAUUUUAAUUAAAAUUAAAACUUCAGAUAU", "RBNS enrichment (R)": 0.75}
{"Strand": "CAGUCACUUCCCUCCCCAGGCCCCAAAGCACCCCAAGGCUGGUAUUCCUUGAGUCAUAGGUAUUAAUAAUAAAAGCCUCAAUGCAGCUUCUCCAUGUAGUUCCUCUCCUA", "RBNS enrichment (R)": 0.517}
{"Strand": "CUGUUAUCUCCUCUCCUAAGGAGAUGAAGACCUAACAGGGGCACUGCGGCUGGGCUGCUUUAGGAGACCAAGUGGCAAGAAAGCUCACAUUUUUUGAGUUCAAAUGCUAC", "RBNS enrichment (R)": 0.264}
{"data": "Series 4", "target": "Histone acetyltransferase KAT6A, winged helix 2, GST fusion (KAT6A, Homo sapiens, UniProt Q92794, residues 85-181)", "method": "protein binding microarray", "form": "double-stranded DNA, one strand shown", "medium": "in vitro", "tested at": "not given", "notes": "8-mer, flanks averaged, mean of 2 arrays, mostly near background", "relative to": "not given", "direction": "higher = stronger binding", "Residues (chain)": "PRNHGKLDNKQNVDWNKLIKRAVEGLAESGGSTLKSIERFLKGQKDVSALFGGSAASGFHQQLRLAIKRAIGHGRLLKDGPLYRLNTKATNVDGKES"}
{"Strand": "GAATCGGA", "E-score": 0.0648}
{"Strand": "ACCCGGAT", "E-score": 0.139}
{"Strand": "CCCTCGCA", "E-score": 0.0107}
{"Strand": "AATTAAAG", "E-score": 0.0929}
{"Strand": "CACGCCGG", "E-score": 0.201}
{"Strand": "AGTGTCCC", "E-score": 0.0346}
{"Strand": "ATACGCTG", "E-score": -0.0261}
{"Strand": "CGAGAAGA", "E-score": -0.095}
{"Strand": "ACTCTATG", "E-score": -0.00392}
{"Strand": "CGATTACA", "E-score": 0.0761}
{"Strand": "ATGATAAC", "E-score": 0.15}
{"Strand": "AACGGGGG", "E-score": -0.0521}
{"Strand": "GGTAGCTA", "E-score": -0.153}
{"Strand": "GCAGCCAC", "E-score": 0.0916}
{"Strand": "CTTGACCC", "E-score": 0.0153}
{"Strand": "AATGTCGA", "E-score": -0.0126}
{"Strand": "CCTAAAGG", "E-score": 0.121}
{"Strand": "AAAGTTTA", "E-score": 0.0462}
{"Strand": "ATCTGCTG", "E-score": 0.103}
{"Strand": "GTGATGTA", "E-score": -0.186}
{"Strand": "CGCTTTAG", "E-score": 0.17}
{"Strand": "ATAACGAG", "E-score": 0.0314}
{"Strand": "CGCCCGAC", "E-score": 0.261}
{"Strand": "ATTATAAT", "E-score": -0.0846}
{"Strand": "ACTCTGAC", "E-score": -0.112}
